# Measured values pooled from the literature.
# Each line is one published result; not all experiments were run side by side. ± marks the error that the study gave.
SMILES,organism,assay,system,conditions,how to read,measurement,value
CC(=O)N1CCC(C(=O)N2CCN3C(=O)c4cc(-c5ccccc5)ccc4NC(=O)C3C2)CC1 (stereo not drawn),Salmonella typhimurium,,TA1535,1581 µg/plate,,revertants per plate,17
COc1cccc(-c2n[nH]c(SCc3ccccn3)n2)c1OC,Salmonella typhimurium,"Ames test, plate incorporation",TA98,"0.13 mg/plate, without S9",,revertant colonies per plate,27
CNC(=O)c1c(N(C)N=O)ncn1C,Salmonella typhimurium,"mutagenicity, Ames plate incorporation",TA1537,"500 µg/plate, without S9, methanol",,revertant colonies per plate,10.3 ± 1
N#Cc1ccnc(N2C(=O)CC[C@H]2C(=O)N(c2cncc(F)c2)[C@H](C(=O)NC2CC(F)(F)C2)c2ccccc2Cl)c1,human coronavirus OC43,virus-induced cell killing,MRC-5,screen,,maximum inhibition,17.1%
O=[N+]([O-])c1ccc(N2CCN(CCC(O)c3ccc(F)cc3)CC2)c(C(F)(F)F)c1 (stereo not drawn),Salmonella typhimurium,"genotoxicity, SOS/umu test",TA1535/pSK1002,"0.001 mg/mL, 4 h, without S9, lower range",,induction factor,0.9
CCCCCOC(=O)Nc1nc(=O)n([C@@H]2O[C@H](C)[C@@H](O)[C@H]2O)cc1F,human coronavirus OC43,virus-induced cell killing,MRC-5,maximum over 10 doses,,maximum inhibition,0%
CC(C)N(C)N=O,Salmonella typhimurium,"mutagenicity, Ames plate incorporation",TA100,"500 µg/plate, 3 d, without S9, methanol",,revertant colonies per plate,169 ± 9
N#C[C@@]1(n2ccc(N)nc2=O)O[C@H](CO)[C@@H](O)[C@H]1O,Salmonella typhimurium,,TA98,"5 µM, without S9",,viability,97%
OC(CCN1CC=C(c2ccc(F)cc2)CC1)c1ccc(F)c2ccccc12 (stereo not drawn),Salmonella typhimurium,"genotoxicity, SOS/umu test",TA1535/pSK1002,"0.016 mg/mL, 4 h, without S9, full range",,induction factor,2.7
CC(C)N(N=O)C(C)C,Salmonella typhimurium,"mutagenicity, Ames plate incorporation",TA98,"5000 µg/plate, without S9, methanol",,revertant colonies per plate,37.3 ± 6
Cc1cc(C(=O)NC(C)(C)COc2cccc3c2C(N)=NS(=O)(=O)N3)cc(C)n1,Salmonella typhimurium,"Ames test, initial",TA98,1500 µg/plate,reference: solvent control,revertant ratio,1.1
O=[N+]([O-])c1ccc(NC2CCNCC2)c(C(F)(F)F)c1,Salmonella typhimurium,"genotoxicity, SOS/umu test",TA1535/pSK1002,"0.016 mg/mL, 4 h, with S9, full range",,induction factor,0.6
